Assay results of several laboratories.
Protocols differ between the studies behind these lines. ± gives the spread as reported.

Compound | cell line | test | conditions | how to read | quantity | value
CC(=O)OC[C@H]1O[C@@H](Sc2sc(C(=O)c3ccc(C)cc3)c(N)c2-c2nc3ccccc3s2)[C@H](OC(C)=O)[C@@H](OC(C)=O)[C@H]1OC(C)=O | NCI-H322M | SRB | 10 µM, 48 h | reference: untreated | growth | 92%
C=C1[C@H](O)CC(=C/C=C2\CCC[C@]3(C)[C@@H]([C@H](C)CCCC)CC[C@@H]23)C[C@H]1O | rat osteosarcoma cells | reporter gene, luciferase, item: CYP24A1 (24-hydroxylase) promoter |  | reference: compound over 1α,25-dihydroxyvitamin D3 | EC50 ratio | 200
Cc1ccc(N(CC2=NCCN2)c2cccc(O)c2)cc1 | hiPSC cardiac tissues 3D | active force | 15 min per concentration, paced at 1 Hz serum-free |  | minimum effective concentration | 30 µM
COc1cc(CN2CCN(c3ccc(C(F)(F)F)cc3)CC2)c2cc3[n+](cc2c1O)CCc1cc2c(cc1-3)OCO2 | Ca-Ski and MDCK | SRB | 48 h | reference: CC50 MDCK over IC50 Ca-Ski | therapeutic index | 24.5
COCCNCC(=O)N(CCCCN)CC(=O)N(CC(=O)N(CC(=O)N(CCCCN)CC(=O)N[C@@H](CCCCN)C(=O)N[C@H](CCCCN)C(=O)N[C@@H](CCSC)C(=O)NCCCC[C@H](NC(=O)[C@H](CCSC)NC(=O)[C@@H](CCCCN)NC(=O)[C@H](CCCCN)NC(=O)CN(CCCCN)C(=O)CN(C(=O)CN(Cc1ccc2c(c1)OCO2)C(=O)CN(CCCCN)C(=O)CNCCOC)[C@H](C)c1ccccc1)C(N)=O)[C@H](C)c1ccccc1)Cc1ccc2c(c1)OCO2 | H358 ALDH− cells | MTS | concentration not given, 24 h |  | viability | no effect
CC(=C(c1ccc(O)cc1)c1ccc(Cl)cc1)c1ccc(Cl)cc1 | Ishikawa | estrogenic activity, agonist | 100 nM, 72 h, unit not given | reference: DMSO | alkaline phosphatase activity | 3.91 ± 1.4
C=C(C)[C@@H]1CC[C@]2(C(=O)OCO/N=[N+](\[O-])N3CCCC3)CC[C@]3(C)[C@H](CC[C@@H]4[C@@]5(C)CC[C@H](OC(C)=O)C(C)(C)[C@@H]5CC[C@]43C)[C@@H]12 | B16-F10 | Annexin V/PI flow cytometry | 0.25 µM, 36 h |  | early apoptotic cells | 3.17%
N=C(N/N=C/c1ccc2ccccc2c1)N/N=C/c1ccc2ccccc2c1 | PANC-1 | crystal violet | 72 h | reference: IC50 hTERT-HPNE over IC50 PANC-1 | selectivity ratio | 2.6
Cc1sc2c(c1C)C(c1ccc(Cl)cc1)=N[C@@H](CC(=O)NCCCCCCCCC(=O)N1CCN(C(=O)c3cc(Cc4n[nH]c(=O)c5ccccc45)ccc3F)CC1)c1nnc(C)n1-2 | SU-DHL-5 | Western blot, item: ATM, ATR, CHK1, CHK2 | 200 nM |  | earliest phosphorylation time | 30 min
COc1cc(CNC(=O)C[C@H](C)CCC=C(C)C)ccc1OCc1cn(-c2ccccc2[N+](=O)[O-])nn1 | SK-MEL-5 melanoma cells | SRB | 10 µM, 48 h |  | growth percent | 16.3%
O=C(NCCCNc1n[n+]([O-])c2ccccc2[n+]1[O-])C(F)(F)F | HUVEC and fibroblast co-culture | tube formation | 20 µM, 11 d |  | inhibition | 80 to 90%
COc1cc(CNC(=O)C[C@H](C)CCC=C(C)C)ccc1OCc1cn(-c2cccc(Cl)c2)nn1 | NCI-H322M | SRB | 10 µM, 48 h |  | growth percent | 105%
CC(C)(C)c1nc(-c2cccc(NS(=O)(=O)c3c(F)cccc3F)c2F)c(-c2ccnc(N)n2)s1.Cc1[nH]c2ccccc2c1CCNCc1ccc(/C=C/C(=O)NO)cc1 | C13 | flow cytometry | concentration not given, 48 h, concentration about IC50 |  | cells in S phase | 2.82%
COc1cc(CNC(=O)C[C@H](C)CCC=C(C)C)ccc1OCc1cn(-c2ccccc2)nn1 | HOP-92 | SRB | 10 µM, 48 h |  | growth percent | 104%
O=C(N1CCCC1)n1cc(-c2ccc(-c3ccccc3)cc2)nn1 | mouse T-cells | N-terminal labeled proteins, N-terminal enrichment proteomics, item: LARP4 | 1 nM, 6 h | reference: DMSO | SILAC ratio | 0.94 ± 0.05
COc1cc(CNC(=O)C[C@H](C)CCC=C(C)C)ccc1OCc1cn(-c2ccccc2Cl)nn1 | SK-MEL-5 melanoma cells | SRB | 10 µM, 48 h |  | growth percent | 5.29%
CCC(C(=O)O)C1CCC(C)C(C(C)C(O)C(C)C(=O)C(CC)C2OC3(C=CC(NCc4cn(CSc5ccccc5)nn4)C4(CCC(C)(C5CCC(O)(CC)C(C)O5)O4)O3)C(C)CC2C)O1 (stereo not shown) | HMLER | cell proliferation |  | reference: IC50 CD24high/CD44low over IC50 CD24low/CD44high | selectivity ratio | 32.7
COc1cc(CNC(=O)C[C@H](C)CCC=C(C)C)ccc1O | SN12C | SRB | 10 µM, 48 h |  | growth percent | 82.2%
O=Cc1c(O)ccc2ccccc12 | HUVEC | RNA sequencing, item: NKAPL | 75 µM, 24 h | reference: DMSO | log2 fold change | 2.84
